Published values from different studies.
Protocols differ between the studies behind these lines. Values joined by “and” are separate records of one study, mostly repeats; a detail may differ. ± marks the error that the study gave. Converted amounts (≈) assume the structure as drawn.

| Compound | tested on | test | system | conditions | how to read | measurement | value |
| --- | --- | --- | --- | --- | --- | --- | --- |
| CCOC(=O)C1(Cc2ccc(C)cc2)Oc2cc(F)ccc2N(Cc2ccc(C)cc2)C1=O (centres unmarked) | Arabidopsis thaliana | root length, petri dish germination | Col-0, 1/2 MS medium | 200 µg/mL, 7 days, 22 °C, dark | – | inhibition | 56.1% |
| CC(C)C[C@H](NC(=O)[C@H](CC(C)C)NC(=O)[C@H](CCCCN)NC(=O)[C@H](Cc1ccccc1)NC(=O)[C@@H](NC(=O)[C@H](CCCNC(=N)N)NC(=O)[C@@H](N)CCCCN)C(C)C)C(=O)N[C@@H](CCCCN)C(=O)N[C@@H](CCCNC(=N)N)C(=O)N[C@@H](Cc1ccc(O)cc1)C(=O)N[C@@H](Cc1c[nH]c2ccccc12)C(=O)N[C@@H](CCCNC(=N)N)C(=O)N[C@@H](CCC(N)=O)C(=O)N[C@@H](CC(C)C)C(=O)N[C@@H](CCCCN)C(=O)N[C@@H](CCCCN)C(=O)N1CCC[C@H]1C(=O)N[C@H](C(=O)N[C@@H](CCCNC(=N)N)C(=O)NCCOCCOCC(=O)O)C(C)C | Pseudomonas aeruginosa and Staphylococcus aureus | crystal violet | polymicrobial biofilm | 8 µM, 24 h, 24 h mature biofilm | – | biofilm eradication | > 60% |
| CCOC(=O)C1(CC=C(C)C)Oc2cc(F)ccc2N(CC=C(C)C)C1=O (centres unmarked) | Arabidopsis thaliana | stem length, petri dish germination | Col-0, 1/2 MS medium | 50 µg/mL, 7 days, 22 °C, dark | – | inhibition | 30.3% |
| CC[C@H](C)CCCCC(=O)N[C@@H](CCN)C(=O)N[C@H](C(=O)N[C@@H](CCN)C(=O)N[C@H]1CCNC(=O)[C@H]([C@@H](C)O)NC(=O)[C@H](CCN)NC(=O)[C@H](CCN)NC(=O)[C@H](CC(C)C)NC(=O)[C@@H](CC(C)C)NC(=O)[C@H](CCN)NC1=O)[C@@H](C)O | Escherichia coli | daily serial passaging | ATCC 8739 | highest sub-MIC, 3 days | baseline: initial MIC | MIC fold change | 1.26 |
| CCCCCCCCCC(=O)NCCCC[C@H](NC(=O)CCCCCCCCC)C(=O)N[C@@H](CCCCNC(=O)CCCCCCCCC)C(=O)NCC(=O)NCC(=O)NCC(=O)N[C@@H](CS)C(=O)N[C@@H](CCCNC(=N)N)C(=O)N[C@@H](CCCCN)C(=O)N1CCC[C@H]1C(=O)N[C@@H](CS)C(=O)N[C@@H](CCCNC(=N)N)C(=O)N[C@@H](CCCCN)C(=O)N1CCC[C@H]1C(N)=O | Candida albicans | broth microdilution | SP 3903, RPMI-1640 | 48 h, 30 °C | – | MIC | 16 µM (≈ 30 µg/mL) |
| CC(=O)c1c(O)c(C)c(O)c2c1OC1=CC(=O)C(=C(C)NCCCC(=O)OC3OC4OC5(C)CCC6C(C)CCC(C3C)C46OO5)C(=O)C12C (centres unmarked) | Plasmodium berghei | – | ANKA GFP, NMRI mouse | oral, 4 x 30 mg/kg, day 4 post infection | – | parasitaemia inhibition | 99.6% |
| Cc1cc(C(=O)Nc2nc3cccc(C)c3n2[C@H]2CCCCN(C(=O)/C=C/CN(C)C)C2)ccn1 | Trypanosoma brucei brucei | – | 2T1 CLK1 overexpressing | 0.625 µM, DMSO pretreated | baseline: maximum | survival | 61.1% and 62.4% and 66.5% and 54.4% |
| FC(F)(F)c1cccc(CNc2nc(NC3CCN(Cc4ccccc4)CC3)c3nc[nH]c3n2)c1 | Cryptococcus neoformans | mRNA level, RNA-seq, refers to: ARG1 CNAG_06500 | – | 48 µg/mL, 3 h | baseline: untreated | fold change | 2.38 |
| Cc1cc(Cl)cc(S(C)=NC#N)c1NC(=O)c1cc(Br)nn1-c1ncccc1Cl (centres unmarked) | Spodoptera litura | leaf-dip | third instar larvae | 6.25 ppm, 24 h | – | mortality | 0% |
| CC(C)[C@H]1NC(=O)CNC(=O)[C@H](CO)NC(=O)[C@@H](Cc2c(-c3ccc(-c4ccc5ccccc5c4)cc3)[nH]c3ccccc23)NC(=O)[C@@H](CO)NC(=O)[C@@H](C(C)C)NC(=O)[C@H](Cc2ccccc2)NC1=O | Candida albicans | broth dilution | – | – | – | MIC90 | > 50 µM |
| [O-][N+]1=C(c2ccccc2)C2=NCCN2c2ccccc21 | Fusobacterium nucleatum | microbial growth | – | – | – | MIC50 | ≤ 0.06 µg/mL |
| COc1ccc(Nc2ncnc3ccc(-c4ccc(S(=O)(=O)N5CCN(C)CC5)cc4)cc23)cc1Cl | Plasmodium falciparum | parasite growth, SYBR Green | D6 | blood stage | – | EC50 | 33 nM |
| CCOC(=O)C1(Cc2ccccc2)Oc2cc(C)ccc2N(Cc2ccccc2)C1=O (centres unmarked) | Arabidopsis thaliana | stem length, petri dish germination | Col-0, 1/2 MS medium | 50 µg/mL, 7 days, 22 °C, dark | – | inhibition | 41.1% |
| Cc1ccc2c(c1)OC(C)(C)[C@@H]1C[C@H]3CN(C(=O)[C@H](Cc4c[nH]c5ccccc45)NC(=O)OC(C)(C)C)CC[C@H]3O[C@@H]21 | HIV-1 subtype C | viral replication | – | 96 h | – | IC50 | 15700 nM |
| C[C@H](NC(=O)[C@@H](O)c1cc(F)cc(F)c1)C(=O)N[C@@H]1C(=O)N(C)c2ccccc2-c2ccccc21 | dengue virus 2 | viral replication | Huh-7.5.1, luciferase reporter | 48 h | – | EC50 | 5 nM |
| COc1ccc(Cn2c3cc(=O)n(Cc4cccc(Cl)n4)c(C)c3c(=O)n2-c2ccccn2)cc1 | human respiratory syncytial virus | – | recombinant reporter virus | concentration not given, scale 0 to 100, with: cytidine 1.2 µM | – | normalized viral replication | 0 |
| CN(C)c1nc(NCc2cccc3ccccc23)c(/N=N/c2ccc(Cl)cc2)c(N(C)C)n1 | Plutella xylostella | leaf dipping | – | 200 mg/L, 96 h | – | mortality | 73.3 ± 5.8% |
| [O-][N+]1=C(c2ccc(Cl)cc2)C2=NCCCCN2c2ccccc21 | Fusobacterium nucleatum | microbial growth | – | – | – | MIC50 | 0.5 µg/mL (≈ 1.53 µM) |
| CCOC(=O)C1(Cc2ccccc2)Oc2ccccc2N(Cc2ccccc2)C1=O (centres unmarked) | Arabidopsis thaliana | stem length, petri dish germination | Col-0, 1/2 MS medium | 200 µg/mL, 7 days, 22 °C, dark | – | inhibition | 64.9% |
| [2H]C([2H])(c1cc(F)c(F)cc1F)n1c(=O)n(Cc2ncn(C)n2)c(=O)[nH]/c1=N\c1cc2cn(C)nc2cc1Cl | Murine coronavirus | viral replication, qPCR | L929 | 48 h | – | IC50 | 1280 nM |
| CCOC(=O)C1(CC)Oc2cc(F)ccc2N(CC)C1=O (centres unmarked) | Arabidopsis thaliana | root length, petri dish germination | Col-0, 1/2 MS medium | 50 µg/mL, 7 days, 22 °C, dark | – | inhibition | 55.3% |

| Compound | tested on | test | system | conditions | how to read | measurement | value |
| --- | --- | --- | --- | --- | --- | --- | --- |
| C[C@H]1[C@@H](OCc2cn(-c3cc4ccc(O)cc4oc3=O)nn2)O[C@@H]2O[C@@]3(C)CC[C@H]4[C@H](C)CC[C@@H]1[C@@]24OO3 | Plasmodium berghei | – | NK65/GFP, infected mice | oral gavage, 65 µmol/kg once daily, 96 h dosing period | – | median survival | 32 days |
| O=S(=O)(c1ccc(-c2ccc3ncnc(Nc4ccccc4)c3c2)cc1)N1CCOCC1 | Plasmodium falciparum | parasite growth, SYBR Green fluorescence | C235 (TM91C235), drug-resistant | – | – | EC50 | > 4000 nM |
| CC(=O)c1c(O)c(C)c(O)c2c1OC1=CC(=O)C(=C(C)NCCCCOC3OC4OC5(C)CCC6C(C)CCC(C3C)C46OO5)C(=O)C12C (mixture of isomers) | Plasmodium berghei | – | ANKA GFP, NMRI mouse | oral, 4 x 3 mg/kg, day 4 post infection | – | parasitaemia inhibition | 0% |
| COc1cccc(COc2ccc(Nc3ncnc4ccc(-c5ccc(S(=O)(=O)N6CCOCC6)cc5)cc34)cc2Cl)c1 | Plasmodium falciparum | parasite growth, SYBR Green fluorescence | C235 (TM91C235), drug-resistant | – | – | EC50 | 350 nM |
| CN(C(=O)c1ccn2ncc(-c3ccc(C(N)=O)cc3)c2c1)c1ccc(C#N)cn1 | Cryptosporidium parvum | – | UGA1 Nluc, IFN-gamma knockout C57BL/6 mice, faeces | oral, 10 mg/kg daily, 168 h post infection, treatment days 11-17 | higher means more parasites | faecal Nluc luminescence | 8120 a.u. and 24100 a.u. and 1080 a.u. and 13100 a.u. |
| [O-][N+]1=C(c2ccccc2)C2=NCCCN2c2ncccc21 | Fusobacterium nucleatum | microbial growth | – | – | – | MIC50 | 0.125 µg/mL (≈ 0.449 µM) |
| C#CCN1C(=O)C(CC#C)(C(=O)OCC)Oc2ccccc21 (centres unmarked) | Arabidopsis thaliana | – | Col-0 | 50 µg/mL | – | seed germination inhibition | inhibited |
| CC(C)[C@H]1NC(=O)[C@H](Cc2ccccc2)NC(=O)[C@@H](C(C)C)NC(=O)[C@@H](C)NC(=O)[C@H](CO)NC(=O)[C@@H](Cc2c(-c3ccc(-c4ccc5ccccc5c4)cc3)[nH]c3ccccc23)NC(=O)[C@@H](C)NC1=O | Candida albicans | broth dilution | – | – | – | MIC90 | > 50 µM |
| CC(C)(C)OCc1ccc(-c2ccc3ncnc(Nc4ccc(OCc5cccc(F)c5)c(Cl)c4)c3c2)cc1 | Plasmodium falciparum | parasite growth, SYBR Green fluorescence | C235 (TM91C235), drug-resistant | – | – | EC50 | 690 nM |
| C=CCN1C(=O)C(CC=C)(C(=O)OCC)Oc2cc(F)ccc21 (centres unmarked) | Arabidopsis thaliana | seed germination | Col-0 | concentration not given | – | inhibition | > 90% |
| O=C(O)C(Cl)Cl.OCCN(CCO)CCO | Xanthium sibiricum | – | – | 15 mg/mL, 21 days, post-emergence, greenhouse | – | herbicidal inhibition | -50% |
| CCCCCC[C@H]1C(=O)O[C@H](C)[C@H](NC(=O)c2cccc(NC=O)c2O)C(=O)O[C@@H](C)[C@@H]1OC(=O)CC(C)C | Bovine alphaherpesvirus 1 | viral replication | bovine cells | 24 h | – | IC50 | 12 nM |
| CC(C)(C)OC(=O)N1CCN(c2ccc(-c3ccc4ncnc(Nc5ccc(OCc6cccc(F)c6)c(Cl)c5)c4c3)cc2)CC1 | Plasmodium falciparum | parasite growth, SYBR Green | D6 | blood stage | – | EC50 | 860 nM |
| CCOC(=O)C1(Cc2ccc(-c3ccccc3)cc2)Oc2cc(F)ccc2N(Cc2ccc(-c3ccccc3)cc2)C1=O (centres unmarked) | Arabidopsis thaliana | root length, petri dish germination | Col-0, 1/2 MS medium | 50 µg/mL, 7 days, 22 °C, dark | – | inhibition | 42.3% |
| COc1ccc(Nc2ncnc3ccc(-c4ccc(S(=O)(=O)N5CCOCC5)cc4)cc23)cc1Cl | Plasmodium falciparum | parasite growth, SYBR Green | D6 | blood stage | – | EC50 | 810 nM |
| O=C1NC2(CC2)COc2ncc(F)cc2[C@H]2COCCN2c2ccn3ncc1c3n2 | – | – | Sprague-Dawley rat, female, spleen | oral, 2.5 mg/kg/day, 4 weeks dosing, end of recovery | – | organ-to-body weight ratio | 0.277 ± 0.083% |
| Fc1cccc(COc2ccc(Nc3ncnc4ccc(-c5cccc(N6CCSCC6)c5)cc34)cc2Cl)c1 | Plasmodium falciparum | parasite growth, SYBR Green fluorescence | W2, drug-resistant | – | – | EC50 | 1300 nM |
| CCc1nn(C)c2nc(-c3ccc(C(=O)O)cc3)nc(NCc3ccccc3)c12 | Cryptosporidium parvum | – | HCT-8 | 3 x EC90, 72 h | baseline: DMSO control | parasite number | 41.9% and 41.4% and 50.9% and 48.8% |
| CCCCCCCC(=O)NCCCC[C@H](NC(=O)CCCCCCC)C(=O)N[C@@H](CCCCNC(=O)CCCCCCC)C(=O)NCC(=O)NCC(=O)NCC(=O)N[C@@H](CS)C(=O)N[C@@H](CCCNC(=N)N)C(=O)N[C@@H](CCCCN)C(=O)N1CCC[C@H]1C(N)=O | Candida albicans | broth microdilution | SP 3902, RPMI-1640 | 48 h, 30 °C | – | MIC | > 128 µM |
| O=C(c1cccc(-c2ccc3ncnc(Nc4ccc(OCc5cccc(F)c5)c(Cl)c4)c3c2)c1)N1CCCCC1 | Plasmodium falciparum | parasite growth, SYBR Green fluorescence | C235 (TM91C235), drug-resistant | – | – | EC50 | 530 nM |
